Values quoted from earlier work that unrelated publications cite.

Compound | system | conditions | scale | quantity | result
COc1cc2c(c(OC)c1OC)-c1ccc(OC)c(=O)cc1[C@@H](NC(C)=O)CC2 | human, plasma | concentration not given, total concentration | – | Cmax | 17 nM
CC(NCCc1ccc(O)cc1)C(O)c1ccc(O)cc1 (centres unmarked) | human, plasma | concentration not given, median of reported values | – | Cmax | 40 nM
CN[C@H]1C(=O)N[C@@H]2Cc3ccc(cc3)Oc3cc4cc(c3O[C@@H]3O[C@H](C(=O)O)[C@@H](O)[C@H](O)[C@H]3NC(=O)CCCCCCCCC(C)C)Oc3ccc(cc3Cl)[C@@H](O)[C@@H]3NC(=O)[C@H](NC(=O)[C@@H]4NC(=O)[C@@H](NC2=O)c2cc(cc(O)c2Cl)Oc2cc1ccc2O)c1ccc(O)c(c1)-c1c(O[C@H]2O[C@H](CO)[C@@H](O)[C@H](O)[C@@H]2O)cc(O)cc1[C@@H](C(=O)NCCCN(C)C)NC3=O | healthy humans | 1000 mg single dose, mean | – | Cmax | 287 µg/mL
Cc1cccc([C@H](C)c2cnc[nH]2)c1C | human | concentration not given | – | Cmax | 4.7 nM
CCC(CC)O[C@@H]1C=C(C(=O)O)C[C@H](N)[C@H]1NC(C)=O | human adult, plasma | 75 mg twice daily, 5 days, steady state | – | Cmax | 1300 nM
c1cc2c(cc1[C@H]1OC[C@H]3[C@@H]1CO[C@@H]3c1ccc3c(c1)OCO3)OCO2 | human, plasma | 50 mg/day sesamin supplement, equal sesamin content | – | Cmax | 54 nM
C[C@H]1C[C@@H]2[C@H]([C@@H](O)C[C@@]3(C)[C@H]2CC[C@]3(O)C(=O)CO)[C@@]2(C)C=CC(=O)C=C12 | human, plasma | concentration not given, median of reported values | – | Cmax | 310 nM
Cc1nnc2n1-c1ccc(Cl)cc1C(c1ccccc1)=NC2 | human, plasma | highest proposed clinical dose | – | Cmax | 333 nM
Cc1ncc2n1-c1ccc(Cl)cc1C(c1ccccc1F)=NC2 | human | oral, 2.5 mg, single agent, geometric mean | – | Cmax | 26.2 nM
CC1(C)CCC(CN2CCN(c3ccc(C(=O)NS(=O)(=O)c4ccc(NCC5CCOCC5)c([N+](=O)[O-])c4)c(Oc4cnc5[nH]ccc5c4)c3)CC2)=C(c2ccc(Cl)cc2)C1 | human, non-Hodgkin's lymphoma patients | 50 mg single dose, with: ketoconazole 400 mg once daily | relative to: without ketoconazole | Cmax increase | 2.3 fold
N#Cc1ccc(N2N=C3c4ccc(C(=O)N5CCC(O)CC5)nc4CC[C@@H]3[C@@H]2C2CCCC2)cc1Cl | human, plasma | 0.5 mg, steady state | – | Cmax | 60 to 80 nM

A few entries again:
Compound | system | conditions | scale | quantity | result
C[C@H]1C[C@@H]2[C@H]([C@@H](O)C[C@@]3(C)[C@H]2CC[C@]3(O)C(=O)CO)[C@@]2(C)C=CC(=O)C=C12 | human, plasma | concentration not given, median of reported values | – | Cmax | 310 nM
